Assay results collected from several papers.
Compare with care: the assays were run in different laboratories. Converted amounts (≈) assume the structure as drawn.
Organism: Acinetobacter baumannii

CC[C@H](C)[C@H](NC(=O)[C@H](CCCCN)NC(=O)[C@@H](NC(=O)[C@H](CS)NC(=O)[C@H](CCCNC(=N)N)NC(=O)[C@H](CCCNC(=N)N)NC(=O)[C@H](CC(N)=O)NC(=O)[C@H](CCCNC(=N)N)NC(=O)[C@H](CS)NC(=O)[C@@H](NC(=O)[C@H](CO)NC(=O)[C@@H](NC(=O)[C@H](CS)NC(=O)[C@H](CCCCN)NC(=O)[C@@H](N)CCCNC(=N)N)[C@@H](C)CC)C(C)C)[C@@H](C)CC)C(=O)N[C@@H](CS)C(=O)N[C@@H](CCCNC(=N)N)C(=O)O  MBC (AB5075, RPMI; median): 8 µg/mL (≈ 3.8 µM)
CC(C)C[C@H](NC(=O)[C@H](Cc1ccc(O)cc1)NC(=O)[C@@H]1CCCN1C(=O)[C@H](CCCNC(=N)N)NC(=O)[C@@H]1CCCN1C(=O)[C@H](CCCCN)NC(=O)[C@H](CC(=O)O)NC(=O)[C@@H]1CCCN1C(=O)[C@H](CCCNC(=N)N)NC(=O)C1(N)CCCCC1)C(=O)N1CCC[C@H]1C(=O)N[C@@H](CCCNC(=N)N)C(=O)N1CCC[C@H]1C(=O)N[C@@H](CCCNC(=N)N)C(=O)N1CCC[C@H]1C(=O)N1CCC[C@H]1C(=O)N[C@@H](CCCNC(=N)N)C(=O)N1CCC[C@H]1C(=O)N[C@H](C(=O)N[C@@H](CCCNC(=N)N)C(=O)N[C@@H](CSc1c(F)c(F)c(SC[C@H](NC(=O)[C@H](CCCNC(=N)N)NC(=O)[C@@H](NC(=O)[C@@H]2CCCN2C(=O)[C@H](CCCNC(=N)N)NC(=O)[C@@H]2CCCN2C(=O)[C@@H]2CCCN2C(=O)[C@H](CCCNC(=N)N)NC(=O)[C@@H]2CCCN2C(=O)[C@H](CCCNC(=N)N)NC(=O)[C@@H]2CCCN2C(=O)[C@H](CC(C)C)NC(=O)[C@H](Cc2ccc(O)cc2)NC(=O)[C@@H]2CCCN2C(=O)[C@H](CCCNC(=N)N)NC(=O)[C@@H]2CCCN2C(=O)[C@H](CCCCN)NC(=O)[C@H](CC(=O)O)NC(=O)[C@@H]2CCCN2C(=O)[C@H](CCCNC(=N)N)NC(=O)C2(N)CCCCC2)C(C)C)C(=O)NN)c(F)c1F)C(=O)NN)C(C)C  reduction in viable count (time-kill; 2 × MIC, 1 h): 1.18 log CFU/mL
Oc1cc(C(F)(F)F)ccc1-c1nc2c(C(F)(F)F)cc(C(F)(F)F)cc2[nH]1  colistin MIC (colistin potentiator; AB 2A8, colistin-resistant; 5 µM): 0.125 µg/mL
CC(C)C[C@H](NC(=O)[C@H](Cc1ccc(O)cc1)NC(=O)[C@@H]1CCCN1C(=O)[C@H](CCCNC(=N)N)NC(=O)[C@@H]1CCCN1C(=O)[C@H](CCCCN)NC(=O)[C@H](CC(=O)O)NC(=O)[C@@H]1CCCN1C(=O)[C@H](CCCNC(=N)N)NC(=O)C1(N)CCCCC1)C(=O)N1CCC[C@H]1C(=O)N[C@@H](CCCNC(=N)N)C(=O)N1CCC[C@H]1C(=O)N[C@@H](CCCNC(=N)N)C(=O)N1CCC[C@H]1C(=O)N1CCC[C@H]1C(=O)N[C@@H](CCCNC(=N)N)C(=O)N1CCC[C@H]1C(=O)N[C@H](C(=O)N[C@@H](CCCNC(=N)N)C(=O)N[C@@H](CSc1c(F)c(F)c(-c2c(F)c(F)c(SC[C@H](NC(=O)[C@H](CCCNC(=N)N)NC(=O)[C@@H](NC(=O)[C@@H]3CCCN3C(=O)[C@H](CCCNC(=N)N)NC(=O)[C@@H]3CCCN3C(=O)[C@@H]3CCCN3C(=O)[C@H](CCCNC(=N)N)NC(=O)[C@@H]3CCCN3C(=O)[C@H](CCCNC(=N)N)NC(=O)[C@@H]3CCCN3C(=O)[C@H](CC(C)C)NC(=O)[C@H](Cc3ccc(O)cc3)NC(=O)[C@@H]3CCCN3C(=O)[C@H](CCCNC(=N)N)NC(=O)[C@@H]3CCCN3C(=O)[C@H](CCCCN)NC(=O)[C@H](CC(=O)O)NC(=O)[C@@H]3CCCN3C(=O)[C@H](CCCNC(=N)N)NC(=O)C3(N)CCCCC3)C(C)C)C(=O)NN)c(F)c2F)c(F)c1F)C(=O)NN)C(C)C  reduction in viable count (time-kill; 4 × MIC, 60 min): 1.81 log CFU/mL
CCn1c(-c2ccc(-c3ccc(F)cc3)cc2)c(-c2ccc(-c3ccc(F)cc3)cc2)n(CC)c1=[Se+][Au-][P+](CC)(CC)CC.[Cl-]  superoxide dismutase activity (carbapenem-resistant; 10, 20, 40 µM, 2 h; baseline: untreated): decreased
O=c1c(O)ccc(Br)cc1O  MIC80 (multidrug-resistant Ab2): 19.8 µM (≈ 4.3 µg/mL)
CC[C@H](C)[C@H](NC(=O)[C@H](CCCN)NC(=O)[C@H](CC(N)=O)NC(=O)[C@H](Cc1c[nH]c2ccccc12)NC(=O)[C@H](Cc1ccccc1)NC(=O)[C@H](CCCN)NC(=O)[C@H](CCCCNC(=N)N)NC(=O)[C@H](CC(C)C)NC(=O)[C@H](Cc1c[nH]c2ccccc12)NC(=O)[C@H](CCCN)NC(=O)[C@H](CCCCNC(=N)N)NC(=O)[C@H](CC(C)C)NC(=O)CNC(C)=O)C(=O)N[C@@H](CCCN)C(=O)N[C@@H](CCCCNC(=N)N)C(N)=O  MIC (bacterial growth, broth microdilution; multidrug-resistant): 3.12 µM (≈ 6.43 µg/mL)
Oc1ccc(C(F)(F)F)cc1-c1nc2c(Cl)cc(Cl)cc2[nH]1  MIC of colistin (colistin potentiator; AB 3941, colistin-resistant; 5 µM): 0.5 µg/mL
CC[C@@H](C)[C@@H](NC(=O)[C@@H](C)NC(=O)[C@@H](CCCCN)NC(=O)[C@@H](CC(C)C)NC(=O)[C@@H](C)NC(=O)[C@H](NC(=O)[C@@H](Cc1c[nH]cn1)NC(=O)[C@@H](CC(C)C)NC(=O)[C@H](NC(=O)[C@H](NC(=O)[C@@H](CCCCN)NC(=O)[C@@H](CCCCN)NC(=O)[C@@H](C)NC(=O)[C@@H](CO)NC(=O)[C@@H](CCCCN)NC(=O)[C@@H](Cc1ccccc1)NC(=O)[C@H](NC(=O)[C@@H](CCCCN)NC(=O)[C@@H](CC(C)C)NC(=O)[C@@H](Cc1ccccc1)NC(=O)[C@@H](CO)NC(=O)[C@@H](CCCCN)NC(=O)[C@@H](Cc1c[nH]c2ccccc12)NC(=O)[C@@H](CCCCN)NC(C)=O)[C@H](C)O)[C@H](C)O)C(C)C)[C@H](C)O)C(=O)N[C@H](CO)C(=O)N[C@H](CO)C(N)=O  MIC geometric mean (11 isolates; 24 h, 37 °C): 1.1 µM (≈ 3.29 µg/mL)
CCn1c(-c2ccc(OC)cc2)c(-c2ccc(OC)cc2)n(CC)c1=[Se+][Au-][P+](CC)(CC)CC.[Cl-]  glutathione content (carbapenem-resistant; 10, 20, 40 µM, 2 h; baseline: untreated): decreased

A few entries again:
Oc1ccc(C(F)(F)F)cc1-c1nc2c(Cl)cc(Cl)cc2[nH]1  MIC of colistin (colistin potentiator; AB 3941, colistin-resistant; 5 µM): 0.5 µg/mL
